Results collected from several papers.
Each numbered part is a random draw from the data of one study; scales do not carry over between parts. Several values in a cell are separate wells, animals, samples, runs or records.
UniProt P11802, sequence (whole entry, looked up): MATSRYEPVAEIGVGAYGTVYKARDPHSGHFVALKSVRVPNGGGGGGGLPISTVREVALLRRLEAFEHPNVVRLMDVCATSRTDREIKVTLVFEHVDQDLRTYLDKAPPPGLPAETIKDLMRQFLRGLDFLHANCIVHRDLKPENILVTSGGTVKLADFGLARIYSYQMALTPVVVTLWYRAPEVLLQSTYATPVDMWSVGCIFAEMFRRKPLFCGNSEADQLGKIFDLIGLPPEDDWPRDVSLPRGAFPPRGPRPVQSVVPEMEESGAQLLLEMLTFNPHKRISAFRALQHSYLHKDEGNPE
UniProt P57058, sequence (whole entry, looked up): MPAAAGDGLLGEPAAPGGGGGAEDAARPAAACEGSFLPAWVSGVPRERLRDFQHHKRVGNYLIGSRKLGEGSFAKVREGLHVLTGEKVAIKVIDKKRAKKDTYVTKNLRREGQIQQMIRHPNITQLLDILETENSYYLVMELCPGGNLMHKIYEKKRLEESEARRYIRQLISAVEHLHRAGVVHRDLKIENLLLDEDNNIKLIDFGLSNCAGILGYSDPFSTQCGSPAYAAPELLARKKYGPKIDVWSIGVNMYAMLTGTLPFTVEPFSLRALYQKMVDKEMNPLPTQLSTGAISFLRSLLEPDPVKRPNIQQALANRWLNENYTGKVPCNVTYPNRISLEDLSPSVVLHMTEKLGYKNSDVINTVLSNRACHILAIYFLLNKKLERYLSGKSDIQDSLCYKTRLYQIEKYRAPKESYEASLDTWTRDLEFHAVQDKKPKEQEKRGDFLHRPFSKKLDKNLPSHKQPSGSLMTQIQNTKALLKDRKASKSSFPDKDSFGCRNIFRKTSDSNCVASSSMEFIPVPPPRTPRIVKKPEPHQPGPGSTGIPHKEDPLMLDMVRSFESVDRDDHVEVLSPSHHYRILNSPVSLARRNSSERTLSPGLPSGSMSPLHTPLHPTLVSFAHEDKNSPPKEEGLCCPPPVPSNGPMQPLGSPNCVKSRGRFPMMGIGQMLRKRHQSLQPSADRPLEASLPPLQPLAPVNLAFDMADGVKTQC
UniProt O14936, sequence (whole entry, looked up): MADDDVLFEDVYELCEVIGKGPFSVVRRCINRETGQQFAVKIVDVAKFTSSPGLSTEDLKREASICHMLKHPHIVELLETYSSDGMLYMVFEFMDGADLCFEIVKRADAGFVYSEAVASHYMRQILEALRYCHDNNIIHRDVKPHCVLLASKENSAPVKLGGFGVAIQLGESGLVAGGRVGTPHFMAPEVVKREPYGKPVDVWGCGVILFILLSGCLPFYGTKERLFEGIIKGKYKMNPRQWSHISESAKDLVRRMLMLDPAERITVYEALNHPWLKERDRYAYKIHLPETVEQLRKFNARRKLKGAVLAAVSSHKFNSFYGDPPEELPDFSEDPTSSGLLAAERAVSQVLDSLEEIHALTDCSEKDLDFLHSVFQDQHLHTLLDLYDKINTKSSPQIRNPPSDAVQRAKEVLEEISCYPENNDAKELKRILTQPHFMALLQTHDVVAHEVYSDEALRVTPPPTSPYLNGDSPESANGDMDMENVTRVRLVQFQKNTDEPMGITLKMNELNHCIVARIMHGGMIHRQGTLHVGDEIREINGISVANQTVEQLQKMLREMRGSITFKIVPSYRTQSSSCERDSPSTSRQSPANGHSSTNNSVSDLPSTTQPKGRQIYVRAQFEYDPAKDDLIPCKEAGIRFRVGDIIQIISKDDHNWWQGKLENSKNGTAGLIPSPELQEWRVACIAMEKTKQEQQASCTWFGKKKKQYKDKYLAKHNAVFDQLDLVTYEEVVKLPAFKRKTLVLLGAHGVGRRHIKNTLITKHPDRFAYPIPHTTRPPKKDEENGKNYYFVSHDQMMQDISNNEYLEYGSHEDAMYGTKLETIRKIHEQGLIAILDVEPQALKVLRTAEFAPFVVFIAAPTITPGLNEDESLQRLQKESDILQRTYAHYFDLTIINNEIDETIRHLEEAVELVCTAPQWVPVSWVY
UniProt Q8N4C8, sequence (whole entry, looked up): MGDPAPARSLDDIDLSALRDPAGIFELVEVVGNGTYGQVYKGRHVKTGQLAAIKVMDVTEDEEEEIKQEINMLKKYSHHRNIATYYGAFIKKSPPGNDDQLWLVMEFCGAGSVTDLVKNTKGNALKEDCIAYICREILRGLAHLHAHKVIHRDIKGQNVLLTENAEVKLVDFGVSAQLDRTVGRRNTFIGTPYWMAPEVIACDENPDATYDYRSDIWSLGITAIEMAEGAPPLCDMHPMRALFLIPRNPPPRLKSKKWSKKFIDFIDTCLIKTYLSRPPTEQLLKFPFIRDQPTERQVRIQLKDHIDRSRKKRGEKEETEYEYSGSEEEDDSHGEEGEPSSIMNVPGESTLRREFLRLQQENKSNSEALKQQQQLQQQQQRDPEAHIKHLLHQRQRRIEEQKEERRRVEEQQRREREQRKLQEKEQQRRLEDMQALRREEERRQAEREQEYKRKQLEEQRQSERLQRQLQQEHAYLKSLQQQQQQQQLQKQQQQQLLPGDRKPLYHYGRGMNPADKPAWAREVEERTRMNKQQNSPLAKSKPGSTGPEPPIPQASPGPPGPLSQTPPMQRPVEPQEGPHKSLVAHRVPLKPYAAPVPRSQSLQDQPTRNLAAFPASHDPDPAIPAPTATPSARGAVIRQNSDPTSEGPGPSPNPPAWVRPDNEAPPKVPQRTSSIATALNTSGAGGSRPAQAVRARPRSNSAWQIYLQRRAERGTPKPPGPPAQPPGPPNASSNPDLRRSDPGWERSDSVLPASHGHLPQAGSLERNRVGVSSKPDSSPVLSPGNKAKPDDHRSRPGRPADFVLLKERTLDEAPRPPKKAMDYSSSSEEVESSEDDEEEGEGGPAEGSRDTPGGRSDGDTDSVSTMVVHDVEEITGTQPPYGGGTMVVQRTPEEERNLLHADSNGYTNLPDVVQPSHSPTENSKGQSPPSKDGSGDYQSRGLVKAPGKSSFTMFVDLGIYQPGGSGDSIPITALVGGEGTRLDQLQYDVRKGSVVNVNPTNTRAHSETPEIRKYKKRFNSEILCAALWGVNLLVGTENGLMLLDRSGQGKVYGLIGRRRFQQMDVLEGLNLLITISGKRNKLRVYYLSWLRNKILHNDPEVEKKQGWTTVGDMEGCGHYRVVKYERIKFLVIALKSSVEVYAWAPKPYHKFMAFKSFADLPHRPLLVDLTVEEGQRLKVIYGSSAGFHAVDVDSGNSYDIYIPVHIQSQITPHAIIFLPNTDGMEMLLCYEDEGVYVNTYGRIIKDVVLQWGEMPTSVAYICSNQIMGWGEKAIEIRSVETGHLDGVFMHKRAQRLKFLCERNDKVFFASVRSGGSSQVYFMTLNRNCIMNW
UniProt Q96PY6, sequence (whole entry, looked up): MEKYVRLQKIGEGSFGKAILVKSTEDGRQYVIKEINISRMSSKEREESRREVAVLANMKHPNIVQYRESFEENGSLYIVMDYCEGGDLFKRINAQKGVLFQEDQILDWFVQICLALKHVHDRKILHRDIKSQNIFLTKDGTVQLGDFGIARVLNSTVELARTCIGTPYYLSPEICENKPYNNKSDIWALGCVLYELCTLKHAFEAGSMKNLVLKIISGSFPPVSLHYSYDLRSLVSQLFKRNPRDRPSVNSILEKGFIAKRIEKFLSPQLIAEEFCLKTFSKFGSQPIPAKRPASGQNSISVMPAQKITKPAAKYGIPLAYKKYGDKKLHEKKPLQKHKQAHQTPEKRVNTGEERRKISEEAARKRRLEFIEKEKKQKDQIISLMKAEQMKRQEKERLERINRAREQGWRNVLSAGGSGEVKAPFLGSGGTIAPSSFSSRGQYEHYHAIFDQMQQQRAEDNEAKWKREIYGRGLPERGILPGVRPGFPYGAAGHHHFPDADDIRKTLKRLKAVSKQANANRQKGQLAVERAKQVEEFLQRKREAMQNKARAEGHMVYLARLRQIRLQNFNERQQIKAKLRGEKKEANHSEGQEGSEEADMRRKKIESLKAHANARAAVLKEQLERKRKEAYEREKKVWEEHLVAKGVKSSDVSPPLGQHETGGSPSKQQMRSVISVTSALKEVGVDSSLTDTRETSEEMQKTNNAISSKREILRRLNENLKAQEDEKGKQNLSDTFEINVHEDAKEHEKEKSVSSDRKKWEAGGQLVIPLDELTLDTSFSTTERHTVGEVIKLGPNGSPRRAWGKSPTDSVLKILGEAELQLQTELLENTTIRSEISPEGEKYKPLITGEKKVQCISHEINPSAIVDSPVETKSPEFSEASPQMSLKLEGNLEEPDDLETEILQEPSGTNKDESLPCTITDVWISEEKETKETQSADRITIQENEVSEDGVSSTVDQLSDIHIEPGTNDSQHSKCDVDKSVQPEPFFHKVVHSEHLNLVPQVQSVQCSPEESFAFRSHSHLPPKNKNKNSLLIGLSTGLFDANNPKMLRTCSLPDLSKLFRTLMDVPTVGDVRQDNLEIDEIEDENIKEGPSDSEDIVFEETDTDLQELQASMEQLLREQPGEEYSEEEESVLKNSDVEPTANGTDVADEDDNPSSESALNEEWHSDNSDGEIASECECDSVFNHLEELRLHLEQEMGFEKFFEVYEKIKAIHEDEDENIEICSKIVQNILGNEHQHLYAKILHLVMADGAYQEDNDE
UniProt Q8IY84, sequence (whole entry, looked up): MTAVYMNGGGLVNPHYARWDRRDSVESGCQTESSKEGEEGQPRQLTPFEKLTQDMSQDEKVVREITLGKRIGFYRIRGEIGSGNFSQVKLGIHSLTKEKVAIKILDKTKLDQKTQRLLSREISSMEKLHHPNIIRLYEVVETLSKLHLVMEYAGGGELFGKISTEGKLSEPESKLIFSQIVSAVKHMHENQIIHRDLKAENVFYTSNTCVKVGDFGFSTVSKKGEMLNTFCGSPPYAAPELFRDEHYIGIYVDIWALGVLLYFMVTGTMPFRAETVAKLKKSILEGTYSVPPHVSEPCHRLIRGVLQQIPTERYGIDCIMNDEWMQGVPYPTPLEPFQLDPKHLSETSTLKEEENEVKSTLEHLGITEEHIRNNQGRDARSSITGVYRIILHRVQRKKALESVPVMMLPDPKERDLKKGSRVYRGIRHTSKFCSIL

Series 1 — technique: RNA Bind-n-Seq; molecule type: RNA; sample: in vitro; tested at: 365 nM; relative to: no-protein control; direction: higher = stronger binding
Target: RNA binding protein fox-1 homolog 2, RRM domain, GST-SBP tag (RBFOX2, Homo sapiens, UniProt O43251-10, residues 100-194)
Notes: natural RNA segment, single round, ends assumed
Construct (chain): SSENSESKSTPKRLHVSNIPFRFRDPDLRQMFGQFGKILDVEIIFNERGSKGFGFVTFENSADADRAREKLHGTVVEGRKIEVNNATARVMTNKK
| Strand | RBNS enrichment (R) |
| --- | --- |
| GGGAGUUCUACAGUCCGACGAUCUUUCUCACUUUUGUUCAGUGUUUUUAUAAUAUUUGAUAAUAAAAUUCAAGAAAAUCCUAACUAAUGGAAACCUGGUUACCUAAUUCCUGUAUCCUGAAGGAUUUCUACUAUGGAAUUCUCGGGUGCCAA | 0.346 |
| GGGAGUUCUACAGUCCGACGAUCCGUAUUCUGCAAUAUGGCUAAACCCUUUCCUGAUUGAGAGUUAAAGCAAUAGGAGUCAAGUUACUGGUGCCACAGAUCUGGAGGUAUGAUAGGUCAGGGGCUAGGUGUUGUGGAAUUCUCGGGUGCCAA | 2.7 |
| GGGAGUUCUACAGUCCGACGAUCUGCCCUUCAGAGCCAGUAGCAGGCAGGGGUGGGUAGGCACCCUCCUUCCUGUUUUUAUCUAAUAAAAUGCUAACCUGCCCUGAGUUUCCAUUACUGUGGGUGGGGUUCCCUGGAAUUCUCGGGUGCCAA | 0.394 |
| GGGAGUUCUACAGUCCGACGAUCGUAGGCCUCUUGACUUUCUUACAUGACUUUCUGCUAAACUACUUUUCAUUUUAAGGGCACACGCAGCAGAGGCUGGUUUGGAGACUAACACAUUUUGCAUUCUGCAUUGUUGGAAUUCUCGGGUGCCAA | 0.502 |
| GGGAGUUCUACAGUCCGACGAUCAGCUAUGUGGAACGGUUCUUUUCAUCCCCUAGAUGAUGCUGGCACAGAAGGCAUUGUUCCCUACCCUCUGGCGAGUGCAUGCAGCAGAGAGUUAGACAGCAACUUACCUAUGGAAUUCUCGGGUGCCAA | 31.1 |
| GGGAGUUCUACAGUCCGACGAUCCGCCCCCUGUGGUCAAGCCUCUGGUGGGCGUCUUGCCCAGUUCCUGAUGGUUCAAGGGGAGGGGGGAUGUUGGCCAGGCCCCAGGGCACAGCCCUGACACAGGUGUGGCUUGGAAUUCUCGGGUGCCAA | 0.254 |
| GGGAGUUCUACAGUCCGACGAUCCACACUCCCAGGAGAAACUCCCGGUGUGUUUCUGACCCUUUCAGCCCCAUUAAAGCUCCUGAGCUCUCGCUGCCUCCUCUCUCUCUGUUCUUUGCUGCGCCAGAACCCGUUGGAAUUCUCGGGUGCCAA | 0.871 |
| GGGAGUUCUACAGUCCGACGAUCAAGCUCUCCCCAGCUAGUGAAAACCUGAACAUCGUUAGAGUCACCGACUUUACAUGCUCAGAAUGCUGUGCACAAGCCACGCUUUCUAAAGCCCAUCCAGAUUAGUUUAGUGGAAUUCUCGGGUGCCAA | 0.444 |

Series 2 — organism: Sarcocystis neurona; effect on: parasite growth; tested at: 10 µM; time: 96 h; notes: second screen; relative to: untreated
| SMILES | log2 fold change |
| --- | --- |
| NC[C@H]1CC[C@H](C(=O)Oc2ccc(CCC(=O)O)cc2)CC1 | 0.33 |
| O=C(O[C@H]1[C@H](Oc2ccccc2COC(=O)C2(O)C=CCCC2=O)O[C@H](CO)[C@@H](O)[C@@H]1O)c1ccccc1 (stereo partly drawn) | 0.5 |
| COc1cc(C)c(/C=C/C(C)=C/C=C/C(C)=C/C(=O)O)c(C)c1C | 1 |
| CCCCC1=NC2(CCCC2)C(=O)N1Cc1ccc(-c2ccccc2-c2nnn[nH]2)cc1 | 0.17 |

Series 3 — host: human; sample: microsomes or S9; tested at: 2 µM; time: 0.5 h
| SMILES | remaining compound |
| --- | --- |
| Cc1ccc(S(=O)(=O)c2nc(S(C)(=O)=O)sc2NC2CCS(=O)(=O)C2)cc1 (stereo not drawn) | > 99% |
| COc1ccccc1CNC(=O)c1c(OCC2CC2)cc(=O)n2c1CCCCC2 | 2.12% |
| CC(=O)Nc1ccc(S(=O)(=O)N[C@H](C(=O)O)C2CCCCC2)cc1 | > 100% |
| COCC(C)(C)c1noc(-c2cccc3nn[nH]c23)n1 | 77.8% |

Series 4 — effect on: cell-free assay; technique: competition with immobilised ligand; tested at: 1 µM
SMILES: CC1=C(C#N)C(c2ccc3c(c2)c(NC(=O)c2ccccc2C)nn3C)C(C#N)=C(C)N1
| target | remaining binding [%] |
| --- | --- |
| NEK9 (Homo sapiens, UniProt Q8TD19) | 100 |
| MINK1 (Homo sapiens, UniProt Q8N4C8) | 96 |
| PIK3CG (Homo sapiens, UniProt P48736) | 84 |
| MTOR (Homo sapiens, UniProt P42345) | 75 |
| BTK (Homo sapiens, UniProt Q06187) | 85 |
| MAP4K4 (Homo sapiens, UniProt O95819) | 100 |
| Non-receptor tyrosine-protein kinase TYK2, JH2 (TYK2, Homo sapiens, UniProt P29597) | 82 |
| NIM1K (Homo sapiens, UniProt Q8IY84) | 86 |
| Tyrosine-protein kinase ABL1, phosphorylated (ABL1, Homo sapiens, UniProt P00519, T315I) | 97 |
| MARK3 (Homo sapiens, UniProt P27448) | 92 |
| FGFR3 (Homo sapiens, UniProt P22607, G697C) | 93 |
| NEK1 (Homo sapiens, UniProt Q96PY6) | 100 |
| GRK3 (Homo sapiens, UniProt P35626) | 93 |
| CASK (Homo sapiens, UniProt O14936) | 67 |
| CDK16 (Homo sapiens, UniProt Q00536) | 93 |
| Cyclin-dependent kinase 4, with cyclin D1 (CDK4, Homo sapiens, UniProt P11802) | 100 |
| NUAK2 (Homo sapiens, UniProt Q9H093) | 81 |
| COQ8B (Homo sapiens, UniProt Q96D53) | 100 |
| PIM2 (Homo sapiens, UniProt Q9P1W9) | 91 |
| HUNK (Homo sapiens, UniProt P57058) | 78 |

Series 5 — cell line: mouse MPNST tumor cells; technique: high-content immunofluorescence imaging; item: nuclear SOX9; tested at: 10 µM; time: 12 h; notes: mean of 2 replicates; relative to: DMSO control; direction: higher = more nuclear SOX9
| Compound | nuclear SOX9 intensity |
| --- | --- |
| O=c1cc(-c2ccc(O)c(O)c2)oc2cc(O)cc(O)c12 | 151 % of DMSO |
| O=C1CCc2ccc(OCCCCN3CCN(c4cccc(Cl)c4Cl)CC3)cc2N1 | 106 % of DMSO and 178 % of DMSO and 206 % of DMSO |
| CCOC(=O)O[C@]1(C(=O)COC(=O)CC)CC[C@H]2[C@@H]3CCC4=CC(=O)C=C[C@]4(C)[C@H]3[C@@H](O)C[C@@]21C | 72 % of DMSO |
| C[C@@H]1C[C@H]2[C@@H]3C[C@H](F)C4=CC(=O)C=C[C@]4(C)[C@@]3(F)[C@@H](O)C[C@]2(C)[C@@]1(O)C(=O)COC(=O)C(C)(C)C | 91.3 % of DMSO |

Further values, each from its own experiment
| Compound | assay | system | setting | how to read | measurement | value |
| --- | --- | --- | --- | --- | --- | --- |
| CCCN1C(=O)[C@H](CC(C)C)NC(=O)[C@@H](N(C)C(=O)[C@H](CC2CCC2)NC(=O)[C@@H]2C[C@@H](F)CN2C(=O)[C@@](C)(O)C(F)(F)F)CCCCNC(=O)C2(CC2)NC(=O)[C@@H]1Cc1cc(Cl)ccc1Cl | immunohistochemistry | mice, NCI-H69 xenograft, tumour | intravenous, 100 mg/kg once daily, 18 h |  | cleaved caspase-3 positive cells | 57% and 45.3% |
| CC(=O)N[C@@H](Cc1c[nH]c2ccccc12)C(=O)N[C@@H](CCC(=O)C=[N+]=[N-])C(=O)OC(C)C | UPLC-MS/MS | EL4 tumor, C57BL/6 CES1-/- mice, tumor | subcutaneous, 0.3 mg/kg DON equivalent daily, 5 days | higher = more metabolite | serotonin level | 577000 a.u. and 760000 a.u. and 374000 a.u. and 1.18e+06 a.u. and 1.34e+06 a.u. and 508000 a.u. |

For quick reference, copied from above (series 4):
| target | remaining binding [%] |
| --- | --- |
| NUAK2 (Homo sapiens, UniProt Q9H093) | 81 |
| CASK (Homo sapiens, UniProt O14936) | 67 |
| Cyclin-dependent kinase 4, with cyclin D1 (CDK4, Homo sapiens, UniProt P11802) | 100 |
| PIM2 (Homo sapiens, UniProt Q9P1W9) | 91 |
| PIK3CG (Homo sapiens, UniProt P48736) | 84 |
| COQ8B (Homo sapiens, UniProt Q96D53) | 100 |
